Measured values from different studies.
Protocols differ between the studies behind these lines. Numbers after ± are the reported error.
F11: Coagulation factor XI (F11, Homo sapiens, UniProt P03951)
UniProt P03951, sequence (whole entry, looked up): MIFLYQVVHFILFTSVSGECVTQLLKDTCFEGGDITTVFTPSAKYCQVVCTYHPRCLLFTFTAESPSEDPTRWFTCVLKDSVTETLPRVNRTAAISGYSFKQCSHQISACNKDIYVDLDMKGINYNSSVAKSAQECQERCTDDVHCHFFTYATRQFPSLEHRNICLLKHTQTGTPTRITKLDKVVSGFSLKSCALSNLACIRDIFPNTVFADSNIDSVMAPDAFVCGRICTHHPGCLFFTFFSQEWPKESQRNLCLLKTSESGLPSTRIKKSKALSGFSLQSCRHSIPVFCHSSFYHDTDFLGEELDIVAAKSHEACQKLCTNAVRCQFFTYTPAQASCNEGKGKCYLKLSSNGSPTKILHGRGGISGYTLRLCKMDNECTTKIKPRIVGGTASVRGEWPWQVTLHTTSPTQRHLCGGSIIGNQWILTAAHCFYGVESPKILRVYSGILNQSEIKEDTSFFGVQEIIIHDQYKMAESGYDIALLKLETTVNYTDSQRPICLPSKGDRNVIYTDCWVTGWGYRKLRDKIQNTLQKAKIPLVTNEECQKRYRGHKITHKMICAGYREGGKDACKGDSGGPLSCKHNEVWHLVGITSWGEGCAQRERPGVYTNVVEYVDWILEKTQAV
TGFBR1: TGF-beta receptor type-1 (TGFBR1, Homo sapiens, UniProt P36897)
UniProt P36897, sequence (whole entry, looked up): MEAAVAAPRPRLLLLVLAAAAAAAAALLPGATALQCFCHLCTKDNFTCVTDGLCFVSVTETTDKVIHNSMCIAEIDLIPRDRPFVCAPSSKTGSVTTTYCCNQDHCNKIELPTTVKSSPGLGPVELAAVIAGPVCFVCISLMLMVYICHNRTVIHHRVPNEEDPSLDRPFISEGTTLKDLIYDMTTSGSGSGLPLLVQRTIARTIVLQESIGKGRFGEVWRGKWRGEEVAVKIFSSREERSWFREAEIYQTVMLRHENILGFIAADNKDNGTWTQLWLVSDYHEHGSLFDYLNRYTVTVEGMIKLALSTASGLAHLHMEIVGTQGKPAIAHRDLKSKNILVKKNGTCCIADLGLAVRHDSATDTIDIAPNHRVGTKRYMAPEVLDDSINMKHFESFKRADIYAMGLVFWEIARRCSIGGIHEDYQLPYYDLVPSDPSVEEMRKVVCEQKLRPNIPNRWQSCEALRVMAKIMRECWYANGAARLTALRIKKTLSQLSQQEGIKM
JAK2: Tyrosine-protein kinase JAK2 (JAK2, Homo sapiens, UniProt O60674)
UniProt O60674, sequence (whole entry, looked up): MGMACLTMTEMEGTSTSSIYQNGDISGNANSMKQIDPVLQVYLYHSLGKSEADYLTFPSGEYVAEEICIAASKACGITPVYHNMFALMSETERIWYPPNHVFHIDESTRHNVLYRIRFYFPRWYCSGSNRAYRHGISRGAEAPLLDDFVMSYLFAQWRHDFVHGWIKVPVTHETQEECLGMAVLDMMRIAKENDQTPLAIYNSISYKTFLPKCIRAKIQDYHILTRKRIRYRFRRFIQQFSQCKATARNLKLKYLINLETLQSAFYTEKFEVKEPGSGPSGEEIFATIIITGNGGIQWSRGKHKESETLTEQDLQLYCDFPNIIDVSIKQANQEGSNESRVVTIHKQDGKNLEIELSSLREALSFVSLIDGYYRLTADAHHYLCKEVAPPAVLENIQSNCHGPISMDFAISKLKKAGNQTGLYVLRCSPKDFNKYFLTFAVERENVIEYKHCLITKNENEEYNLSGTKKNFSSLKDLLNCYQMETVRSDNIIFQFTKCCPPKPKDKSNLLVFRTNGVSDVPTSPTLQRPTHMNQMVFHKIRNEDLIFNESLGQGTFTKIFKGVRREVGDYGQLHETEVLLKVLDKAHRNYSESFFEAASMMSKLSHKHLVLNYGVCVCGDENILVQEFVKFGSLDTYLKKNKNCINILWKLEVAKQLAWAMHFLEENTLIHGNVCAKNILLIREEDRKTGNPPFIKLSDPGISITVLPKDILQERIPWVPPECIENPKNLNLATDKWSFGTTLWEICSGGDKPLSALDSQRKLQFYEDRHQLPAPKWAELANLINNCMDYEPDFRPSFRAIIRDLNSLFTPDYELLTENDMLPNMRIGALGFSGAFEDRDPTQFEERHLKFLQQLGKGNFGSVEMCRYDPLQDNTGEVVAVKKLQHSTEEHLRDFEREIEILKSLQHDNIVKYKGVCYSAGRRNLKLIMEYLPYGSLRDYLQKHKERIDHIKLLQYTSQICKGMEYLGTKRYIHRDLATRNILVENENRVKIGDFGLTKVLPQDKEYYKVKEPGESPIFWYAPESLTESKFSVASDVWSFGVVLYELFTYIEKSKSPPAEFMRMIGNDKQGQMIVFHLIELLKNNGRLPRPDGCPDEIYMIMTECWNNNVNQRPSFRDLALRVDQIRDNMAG
TYMS: Thymidylate synthase (TYMS, Homo sapiens, UniProt P04818)
UniProt P04818, sequence (whole entry, looked up): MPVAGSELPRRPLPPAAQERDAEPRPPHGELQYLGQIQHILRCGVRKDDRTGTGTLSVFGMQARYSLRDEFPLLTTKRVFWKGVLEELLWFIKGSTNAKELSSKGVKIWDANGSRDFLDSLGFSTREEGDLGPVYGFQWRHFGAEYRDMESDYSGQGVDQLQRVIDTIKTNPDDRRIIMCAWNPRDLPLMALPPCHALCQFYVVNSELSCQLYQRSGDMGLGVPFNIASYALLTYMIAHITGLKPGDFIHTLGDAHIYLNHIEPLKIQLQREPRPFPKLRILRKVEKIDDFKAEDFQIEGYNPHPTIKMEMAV
DCN1-like protein 1 PONY domain: DCN1-like protein 1, PONY domain (Homo sapiens, UniProt Q96GG9)
PARP1: Poly [ADP-ribose] polymerase 1 (PARP1, Homo sapiens, UniProt P09874)
UniProt P09874, sequence (whole entry, looked up): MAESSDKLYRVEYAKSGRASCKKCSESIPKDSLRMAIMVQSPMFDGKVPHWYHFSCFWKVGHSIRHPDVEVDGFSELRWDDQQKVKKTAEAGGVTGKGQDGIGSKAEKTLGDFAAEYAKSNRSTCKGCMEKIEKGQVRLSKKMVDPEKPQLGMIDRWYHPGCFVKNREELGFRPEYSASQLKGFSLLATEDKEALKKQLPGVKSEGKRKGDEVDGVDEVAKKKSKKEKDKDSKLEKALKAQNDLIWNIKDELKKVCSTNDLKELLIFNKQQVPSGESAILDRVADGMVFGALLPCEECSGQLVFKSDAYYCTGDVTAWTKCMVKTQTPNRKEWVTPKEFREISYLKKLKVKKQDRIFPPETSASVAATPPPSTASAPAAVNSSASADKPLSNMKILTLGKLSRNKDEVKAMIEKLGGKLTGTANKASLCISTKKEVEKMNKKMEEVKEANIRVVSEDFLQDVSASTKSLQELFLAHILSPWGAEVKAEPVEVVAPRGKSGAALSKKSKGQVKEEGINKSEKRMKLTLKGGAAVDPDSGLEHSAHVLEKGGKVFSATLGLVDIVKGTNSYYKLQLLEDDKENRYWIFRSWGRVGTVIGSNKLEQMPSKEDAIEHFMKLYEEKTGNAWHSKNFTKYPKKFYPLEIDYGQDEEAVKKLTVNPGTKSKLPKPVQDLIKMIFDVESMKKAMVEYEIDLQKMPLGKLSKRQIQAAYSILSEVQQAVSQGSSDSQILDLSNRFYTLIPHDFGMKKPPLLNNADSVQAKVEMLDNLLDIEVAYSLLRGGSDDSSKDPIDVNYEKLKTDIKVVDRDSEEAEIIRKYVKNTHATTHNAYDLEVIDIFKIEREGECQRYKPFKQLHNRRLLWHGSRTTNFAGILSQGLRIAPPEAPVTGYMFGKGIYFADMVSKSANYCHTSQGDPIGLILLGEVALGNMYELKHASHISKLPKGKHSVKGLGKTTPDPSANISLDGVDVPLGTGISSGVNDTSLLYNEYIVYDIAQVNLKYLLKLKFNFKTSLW
Protein lin-28 homolog A: Protein lin-28 homolog A (Mus musculus, UniProt Q8K3Y3)
UniProt Q8K3Y3, sequence (whole entry, looked up): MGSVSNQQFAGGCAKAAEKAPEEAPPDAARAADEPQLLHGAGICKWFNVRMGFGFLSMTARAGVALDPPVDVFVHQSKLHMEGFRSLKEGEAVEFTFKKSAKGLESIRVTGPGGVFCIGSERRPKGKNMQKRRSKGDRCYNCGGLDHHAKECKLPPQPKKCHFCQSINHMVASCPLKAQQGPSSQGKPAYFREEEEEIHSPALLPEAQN
UniProt Q9BSA9, sequence (whole entry, looked up): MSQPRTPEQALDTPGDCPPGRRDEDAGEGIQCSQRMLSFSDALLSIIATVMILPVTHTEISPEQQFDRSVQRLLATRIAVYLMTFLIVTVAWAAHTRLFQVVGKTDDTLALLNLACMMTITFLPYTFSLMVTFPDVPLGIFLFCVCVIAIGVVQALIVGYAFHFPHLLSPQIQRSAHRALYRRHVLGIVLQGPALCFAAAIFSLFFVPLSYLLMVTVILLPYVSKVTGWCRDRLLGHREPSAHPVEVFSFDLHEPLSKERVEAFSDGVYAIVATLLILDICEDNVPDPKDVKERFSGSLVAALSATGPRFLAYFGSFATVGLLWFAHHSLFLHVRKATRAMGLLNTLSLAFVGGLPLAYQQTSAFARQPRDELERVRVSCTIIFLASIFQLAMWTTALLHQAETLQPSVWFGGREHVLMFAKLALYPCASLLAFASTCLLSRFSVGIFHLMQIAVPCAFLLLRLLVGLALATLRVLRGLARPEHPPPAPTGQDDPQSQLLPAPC
UniProt P23975, sequence (whole entry, looked up): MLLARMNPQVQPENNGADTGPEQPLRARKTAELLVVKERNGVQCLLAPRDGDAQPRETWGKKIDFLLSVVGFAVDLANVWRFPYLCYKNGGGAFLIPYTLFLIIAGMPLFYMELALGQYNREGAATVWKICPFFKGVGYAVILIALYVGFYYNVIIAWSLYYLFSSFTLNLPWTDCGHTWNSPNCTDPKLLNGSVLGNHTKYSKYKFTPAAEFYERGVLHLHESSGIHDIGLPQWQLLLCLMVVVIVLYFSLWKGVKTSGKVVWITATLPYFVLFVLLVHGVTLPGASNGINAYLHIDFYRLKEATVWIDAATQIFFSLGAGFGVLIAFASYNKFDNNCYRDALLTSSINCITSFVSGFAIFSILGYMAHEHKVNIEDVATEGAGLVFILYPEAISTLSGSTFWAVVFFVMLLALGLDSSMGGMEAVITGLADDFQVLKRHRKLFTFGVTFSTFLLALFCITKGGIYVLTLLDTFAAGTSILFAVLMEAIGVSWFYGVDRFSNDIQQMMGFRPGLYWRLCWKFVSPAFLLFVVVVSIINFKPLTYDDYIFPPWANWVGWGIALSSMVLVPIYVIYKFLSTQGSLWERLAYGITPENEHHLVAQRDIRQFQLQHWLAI
UniProt P10599, sequence (whole entry, looked up): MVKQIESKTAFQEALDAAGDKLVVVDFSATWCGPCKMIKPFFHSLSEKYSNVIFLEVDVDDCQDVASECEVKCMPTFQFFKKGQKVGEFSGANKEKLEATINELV

Structure (SMILES)	target	test	test system	conditions	IC50
COCc1nn(Cc2ccc(Cn3ccccc3=O)cc2)cc1C(=O)NCc1cc[nH]n1	F11	–	–	–	> 40 µM
CCCCOc1cc(C(=O)NCCN(CC)CC)c2ccccc2n1	PKD2L1 (Homo sapiens, UniProt Q9P0L9, F549I)	ion current	–	–	68.9 µM
Nc1nccc(-c2c(-c3ccc(F)cc3)ncn2C2CCCCC2)n1	TGFBR1	binding, LanthaScreen kinase binding	–	–	0.0632 ± 0.014 µM
NC(=O)c1cccnc1	Nicotinamide N-methyltransferase (NNMT, Homo sapiens, UniProt P40261)	enzyme activity, inhibitor	–	–	> 25.1 µM
Cc1cccc(-c2nc(CN(C)C)[nH]c2-c2ccncc2)c1	TGFBR1	binding, LanthaScreen kinase binding	–	–	0.265 ± 0.0504 µM
COc1cc2nccc(Oc3ccc(NC(=O)c4cc5c(n(-c6ccccc6)c4=O)CCCC5=O)nc3)c2cc1OC	Tyrosine-protein kinase Blk (BLK, Homo sapiens, UniProt P51451)	cell viability, CellTiter-Glo	Ba/F3 expressing recombinant kinase	48 h	> 0.1 µM
Cc1cc(Nc2nc(N[C@@H](C)c3ncc(F)cn3)ncc2Cl)n[nH]1	JAK2	enzyme activity, inhibitor	–	–	0.00126 ± 0.0002 µM
COc1cc(O)c(-c2nc(-c3ccc(F)cc3)c(-c3ccncc3)[nH]2)c(OC)c1	TGFBR1	binding, LanthaScreen kinase binding	–	–	> 5 µM
c1coc(CNc2ncnc3[nH]cnc23)c1	Gelsolin, peptide (GSN, Homo sapiens, UniProt P06396)	gelsolin peptide aggregation, inhibitor, ThT fluorescence	–	12 h, 37 °C	19 ± 5 µM
Nc1nc(N)c2nc(C(=O)NCc3cccc(C(F)(F)F)c3)cnc2n1	TYMS	inhibitor	–	–	> 100 µM
Fc1ccc(-c2nc(-c3ccccc3)[nH]c2-c2ccncc2)cc1	TGFBR1	binding, LanthaScreen kinase binding	–	–	0.731 ± 0.107 µM
COc1ccnc(CNC(=O)c2cnn(Cc3ccc(Cn4ccccc4=O)cc3)c2)c1F	F11	–	–	–	> 40 µM
C=CC(=O)NCCN(C(=O)Nc1cccc(C(F)(F)F)c1)C1CCN(C(C)CCC)CC1 (stereo not drawn)	DCN1-like protein 1 PONY domain	binding, inhibitor, TR-FRET	–	24 h, racemic mixture	> 34.5 µM
CCn1c(-c2nc3ccc(C(=O)N4CCCC(N)C4)cc3n2C)cc2ccccc21 (stereo not drawn)	D(1A) dopamine receptor (DRD1, Homo sapiens, UniProt P21728)	antagonist, TR-FRET	–	–	25.1 µM
CCc1ccc(NC(=O)Nc2c[nH]c3ccccc23)cc1	TYRO protein tyrosine kinase-binding protein (TYROBP, Homo sapiens, UniProt O43914)	split luciferase reporter	human cells	6 h, treatment 48 h after induction, with: doxycycline induction	7.2 ± 3.1 µM
COC(=O)C1CCN(C(=O)c2ccc(SCc3cnc4nc(N)nc(N)c4n3)nc2)CC1	TYMS	inhibitor	–	–	> 100 µM
Cc1cccc(-c2nc(-c3ccc(S(C)(=O)=O)cc3)[nH]c2-c2ccncc2)c1	TGFBR1	binding, LanthaScreen kinase binding	–	–	1.17 ± 0.262 µM
Cc1cc2c(cc1N1C(=O)c3cccc4c(Cl)ccc(c34)C1=O)n(C)c(=O)n2C	Peregrin, bromodomain; with histone H4 (BRPF1, Homo sapiens, UniProt P55201)	binding, inhibitor, NanoBRET	HCT-116	–	> 10 µM
NC(=O)c1cccc2c1O/C(=C\c1ccc(C(=O)NCCn3ncc4ccccc4c3=O)s1)C2=O	PARP1	inhibitor	–	–	0.64 µM
CCCC(C)N1CCC(N(Cc2ccccc2NC(=O)CC)C(=O)Nc2cccc(C(F)(F)F)c2)CC1 (stereo not drawn)	DCN1-like protein 1 (Homo sapiens, UniProt Q96GG9)	inhibitor, pulse-chase	–	preincubation 24 h	0.382 ± 0.051 µM
Cn1cc2c(C(=O)O)ccc(NS(=O)(=O)c3ccc(OCC4CCC4)c(Cl)c3)c2n1	Sodium-dependent noradrenaline transporter (SLC6A2, Homo sapiens, UniProt P23975)	antagonist	–	–	> 10 µM
Cc1cnc(-c2ccc(-c3ccc(NC(=O)Nc4c(F)cc(F)cc4F)cc3F)c3c2C(=O)NC3)[nH]1	Angiopoietin-1 receptor (TEK, Homo sapiens, UniProt Q02763)	enzyme activity, inhibitor, mobility shift	–	with: ATP 1 mM	0.0046 µM
CCCCCCCC/C=C1/C=C(C(F)(F)F)c2cc(OC)c(OC)cc21	Thioredoxin (TXN, Homo sapiens, UniProt P10599)	insulin reduction, inhibitor	–	1 h, 37 °C, preincubation	no inhibition
COc1ccc(Oc2ccc(CN(C)Cc3cnc4nc(N)nc(N)c4n3)cc2)cc1	TYMS	inhibitor	–	–	> 100 µM

Structure (SMILES)	target	test	test system	conditions	IC50
O=[N+]([O-])c1ccccc1-c1nc(-c2ccc(F)cc2)c(-c2ccncc2)[nH]1	TGFBR1	binding, LanthaScreen kinase binding	–	–	0.0534 ± 0.0119 µM
COC(=O)C1CCN(C(=O)c2ccc(N(CCCO)Cc3cnc4nc(N)nc(N)c4n3)cc2)CC1	TYMS	inhibitor	–	–	> 100 µM
NC(=O)c1cccc2c1O/C(=C\c1ccc(C(=O)NC3CC(F)(F)C3)s1)C2=O	PARP1	inhibitor	–	–	0.22 µM
COc1cc2c(c(OC)c1OC)-c1c(cc3c(c1OC)OCO3)CC(C)C(C)C2 (stereo not drawn)	CYP3A, rat	poziotinib metabolism to M1, inhibitor	rat liver microsomes, 0.3 mg/mL	30 min, with: poziotinib 5 µM	2.55 µM
CCc1ccc(Cn2nnc3c4ccc(F)cc4c(=O)[nH]c32)cc1	Protein mono-ADP-ribosyltransferase PARP4 (PARP4, Homo sapiens, UniProt Q9UKK3)	–	–	–	> 10 µM
Cc1ccc(S(=O)(=O)Nc2ccc(F)cc2NS(=O)(=O)c2ccc(C)cc2)cc1	Protein lin-28 homolog A	–	–	–	15.5 µM
O=c1c(O[C@@H]2O[C@H](CO)[C@@H](O)[C@H](O)[C@H]2O)c(-c2ccc(O)c(O)c2)oc2cc(O)cc(O)c12	Protein disulfide-isomerase (P4HB, Homo sapiens, UniProt P07237)	reductase activity, inhibitor, fluorogenic BD-SS	–	purified PDI	2.7 µM
CN1CCN(c2ccc(Nc3ncc4cc(C#N)c(=O)n(C5CCCC5)c4n3)cc2)CC1	Tyrosine-protein kinase FRK (FRK, Homo sapiens, UniProt P42685)	–	–	–	0.102 µM
COc1cc(Oc2ccc(CNCc3cnc4nc(N)nc(N)c4n3)cc2)cc(OC)c1OC	TYMS	inhibitor	–	–	> 100 µM
COc1ccc(F)c(CNC(=O)c2cn(Cc3ccc(Cn4ccccc4=O)cc3)nc2CN(C)C)c1F	F11	–	–	–	> 40 µM
COC(=O)C1CCN(C(=O)Cc2ccc(NCc3cnc4nc(N)nc(N)c4n3)cc2)CC1	TYMS	inhibitor	–	–	> 100 µM
CCCC(C)N1CCC(N(Cc2cccc(NC(=O)CCl)c2)C(=O)Nc2cccc(C(F)(F)F)c2)CC1 (stereo not drawn)	DCN1-like protein 1 PONY domain	binding, inhibitor, TR-FRET	–	24 h, racemic mixture	0.076 ± 0.029 µM
Nc1ccnc(-c2ccccc2)c1	TMEM175 (Homo sapiens, UniProt Q9BSA9)	proton current, inhibitor, whole-cell patch clamp	HEK293T	pH 4.5, no K+	~30 µM
COc1ccccc1-c1nc(-c2ccc(F)cc2)c(-c2ccncc2)[nH]1	TGFBR1	binding, LanthaScreen kinase binding	–	–	0.0085 ± 0.0052 µM
Cn1c(=O)c2c(ncn2C)n(C)c1=O	Sodium-dependent phosphate transport protein 1 (SLC17A1, Homo sapiens, UniProt Q14916)	urate uptake	Xenopus oocytes	1 h, pH 7.4, nicotinate-preloaded oocytes, with: 40 µM [14C]urate	680 µM
COC(=O)C1CCN(C(=O)c2cccc(NCc3cnc4nc(N)nc(N)c4n3)c2)CC1	TYMS	inhibitor	–	–	> 100 µM
CCN(CC)CCCC(C)Nc1ccnc2cc(Cl)ccc12 (stereo not drawn)	JAK2	enzyme activity, inhibitor	–	with: 10 µM ATP	> 10 µM
Cc1cccc(-c2nc(-c3ccc(C(=O)O)cc3)[nH]c2-c2ccncc2)c1	TGFBR1	binding, LanthaScreen kinase binding	–	–	0.171 ± 0.0151 µM
COc1c(C(=O)O)csc1Br	Protein lin-28 homolog A	–	–	–	4.8 µM
CC[C@@H]1[C@H](F)C(=O)N[C@@H]1COc1nccc2cc(C(N)=O)c(OC)cc12	Mitogen-activated protein kinase kinase kinase 2 (MAP3K2, Homo sapiens, UniProt Q9Y2U5)	ATP probe binding, KiNativ profiling, refers to: Lys1 probe site	THP-1 cell lysate	–	> 5 µM
Cc1ccc(C)n1-c1sccc1C(=O)O	Protein lin-28 homolog A	–	–	–	5.4 µM
NC(=O)c1cccc2c1O/C(=C\c1ccc(C(=O)NCc3nc4ccccc4[nH]3)s1)C2=O	PARP1	inhibitor	–	–	0.12 µM
Cc1cc(=O)[nH]c(SCc2cccc3ccccc23)n1	Protein lin-28 homolog A	–	–	–	33.9 µM
Cc1cncn1Cc1ccccc1	Glutaminyl-peptide cyclotransferase (QPCT, Homo sapiens, UniProt Q16769)	–	–	–	1.82 µM

Repeated from above:
Structure (SMILES)	target	test	test system	conditions	IC50
COC(=O)C1CCN(C(=O)Cc2ccc(NCc3cnc4nc(N)nc(N)c4n3)cc2)CC1	TYMS	inhibitor	–	–	> 100 µM
CCCC(C)N1CCC(N(Cc2cccc(NC(=O)CCl)c2)C(=O)Nc2cccc(C(F)(F)F)c2)CC1 (stereo not drawn)	DCN1-like protein 1 PONY domain	binding, inhibitor, TR-FRET	–	24 h, racemic mixture	0.076 ± 0.029 µM
Nc1ccnc(-c2ccccc2)c1	TMEM175 (Homo sapiens, UniProt Q9BSA9)	proton current, inhibitor, whole-cell patch clamp	HEK293T	pH 4.5, no K+	~30 µM
